Published values gathered from unrelated publications.
A part holds a random share of what one study measured. Substitutions count along the parent as printed.

Sample 1
Target: RNA binding protein fox-1 homolog 2, RRM domain, GST-SBP tag (RBFOX2, Homo sapiens, UniProt O43251-10, residues 100-194)
Technique: RNA Bind-n-Seq
Molecule type: RNA
Medium: in vitro
Concentration: 365 nM
Setting: natural RNA segment, single round, ends assumed
Reference: no-protein control
Direction: higher = stronger binding
All sequences stand within: GGGAGUUCUACAGUCCGACGAUC … UGGAAUUCUCGGGUGCCAA
Target sequence (chain): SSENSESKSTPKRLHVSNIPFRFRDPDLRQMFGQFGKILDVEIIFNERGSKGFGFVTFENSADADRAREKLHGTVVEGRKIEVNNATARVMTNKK
`CUUGGUGCUUGAGGUCUCCCUGCUCUUGGUGGCAGUGGUAGCAGCAACAGCAGCAGCAGCAGCAGCAGCAGCAGCAGAGACCUCUCCACUUUCCCUUAGCCCCUCUGCUG` — result for “RBNS enrichment (R)”: 0.287.
Under “RBNS enrichment (R)”, `UGGAGACUGAAAAUGCCUACUGUAUUGAUGUCUUUAUUCUUUGGUGAAUCAAAAGUUUUAAAAGUAGUUUUAAAAACUUUACACUAUAAUGAUUUAGUUUUGUUAUUGCA` is recorded as 1.01.
For `UAUAUAUAUAUGGAUGUGUGGAUGUAUGUCUUUCUAAUUGAGAGAACCAUCCUAUUCACUGGGUGCCAAGUUUGAGUGAUGAGGGGCUUGGCUUAGAAGUGAGGCUCCCU`, “RBNS enrichment (R)” read 0.606.
For `GGCCAGCGGGGGGACGGAGGCGGCGGGCCCAGGAGCCUCAGCCAGCCACGUGGGCAUCCACUCCUUUUCCUGCAAGAGAUGAUGGUUCCAUUGCUCUUGGCUUCAUGGUG`, “RBNS enrichment (R)” read 0.523.
For `GGUUCCUCCCUCCCCACCUGCCCUCCUAGCUCCAGCACUGCCCCCGUGGCAGCCCACUUGGACCCCCCUAAAAGGAGGGAAUAGGAGGAGGGCAGGGUGAGUGGGGGCAA`, “RBNS enrichment (R)” read 0.212.
Under “RBNS enrichment (R)”, `AUACGAUUUGCACCUUUCUGUUUUCCUGCAGUCAGGGUGGUGGCCUGCAGGGACCUGAGCUUUGCUACCCAACCAGAUUCCUCAUAGAGAUUCCUAAUCACUAGUUUCUU` is recorded as 0.897.
Under “RBNS enrichment (R)”, `UCACUGCUAAGGACCGGAAGGACCCCUGCAUUGACACUCACCAGUACCGAGAAGGUCUAAGUAAAACAACGCAAGAUCAGCUCUUUCAGACUCUUAUCCAGAGGGCUCAG` is recorded as 0.297.
For `GCUCUUUCCUCCUUCCCCCUGGGCUGACCAAAAAUGUGCUAUCUACUGUGAGCCCCUUUCCCAAGACCCUGGGGGACGGAGAGACCAUGGAGUGAAUGUAAAAAUGCCAC`, “RBNS enrichment (R)” read 0.397.
For `GCCGGAGACAGGGUCUGCUGGAGCUGGGAGACGGCGCUGCAGAUAGAUGGCUACAGGAGCUUUUGGACUCACAGCCUCUGCUCUAGAGGUGUUGUGUAUGGGCUGCUAAU`, “RBNS enrichment (R)” read 0.287.
`GAAUUGCGGUCGUCAAAACAAAACAAAACAAACAAAAAAAAACAAUCUAGCCUAGCUGGCCUUAUUUGGGAAGCGUAACUGCUUUUAGCAUAUGGGAGUAUUUUUUCACA` — result for “RBNS enrichment (R)”: 0.489.
Under “RBNS enrichment (R)”, `CUAUAUUUAUUAUAUAUUUUUUCCUUAUUAACAGAGUAUUAAUCUAGUAAAAAAUAACCCAGCAGUAAAUAAUAAAGAAAUUACUGAAUGAGAGGAUAAUGAAUCUGAAU` is recorded as 0.555.
`GCCUGGAGGUGGGGGUGGGGGCAGCCAAGUCCAGCCACUCUUCACCUGGCUCCCUGCUCUGGGCCCUGCACCAGAGCUGCCACCCUCUUCUUUCUCCCCAGCCUUCUCAU`: “RBNS enrichment (R)” 0.351.

Sample 2
Target: CCNA1, cyclin fold, Cln2 fusion (human)
Technique: yeast growth competition, sequencing
Medium: yeast
Setting: weak parent motif
Reference: not given
Direction: higher = stronger binding
Starting sequence: RBL1 docking peptide (human); GSAKRRLFGEDPP; partner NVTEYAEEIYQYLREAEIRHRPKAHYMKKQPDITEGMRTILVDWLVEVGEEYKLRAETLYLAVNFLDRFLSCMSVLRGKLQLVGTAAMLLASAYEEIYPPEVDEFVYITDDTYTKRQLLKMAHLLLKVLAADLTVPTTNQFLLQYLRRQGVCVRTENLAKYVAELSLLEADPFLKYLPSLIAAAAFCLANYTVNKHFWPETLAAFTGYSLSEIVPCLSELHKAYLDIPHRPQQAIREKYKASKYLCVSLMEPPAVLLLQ
`L7Y` — result for “normalised enrichment score”: 0.235.
Under “normalised enrichment score”, `A3D` is recorded as -0.154.
For `D11C`, “normalised enrichment score” read 0.577.
`F8D` — result for “normalised enrichment score”: 0.512.
`R5A` — result for “normalised enrichment score”: 0.38.
Under “normalised enrichment score”, `P12Y` is recorded as 0.698.
For `P13M`, “normalised enrichment score” read 0.28.
`P12V` — result for “normalised enrichment score”: 0.676.
`A3N`: “normalised enrichment score” -0.122.
`E10Y`: “normalised enrichment score” 0.401.
`R6N` — result for “normalised enrichment score”: 0.886.
`G1M`: “normalised enrichment score” 0.203.
`P13W`: “normalised enrichment score” 0.649.
`R6I` — result for “normalised enrichment score”: 0.0896.
`L7P`: “normalised enrichment score” 0.379.
For `A3Y`, “normalised enrichment score” read 0.274.
`R5Q`: “normalised enrichment score” 0.208.
`R5D`: “normalised enrichment score” 0.417.
Under “normalised enrichment score”, `D11A` is recorded as 0.59.
`G9D`: “normalised enrichment score” 0.729.
For `L7M`, “normalised enrichment score” read 0.382.
For `P13K`, “normalised enrichment score” read 0.273.
`D11S` — result for “normalised enrichment score”: 0.565.
For `R5V`, “normalised enrichment score” read 0.337.
`D11Y`: “normalised enrichment score” 0.792.

Sample 3
Target: Histone acetyltransferase KAT6A, winged helix 2, GST fusion (KAT6A, Homo sapiens, UniProt Q92794, residues 85-181)
Technique: protein binding microarray
Molecule type: double-stranded DNA, one strand shown
Medium: in vitro
Concentration: not given
Setting: 8-mer, flanks averaged, mean of 2 arrays, mostly near background
Reference: not given
Direction: higher = stronger binding
Target sequence (chain): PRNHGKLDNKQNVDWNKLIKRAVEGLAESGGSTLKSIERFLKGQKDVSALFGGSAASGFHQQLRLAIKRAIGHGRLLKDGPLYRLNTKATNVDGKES
With `GATCTACA` the E-score was 0.0911.
`CAAGGCTA` has an E-score of 0.0652.
`GAGTACTA` gave an E-score of -0.0127.
With `ACAATTCC` the E-score was -0.0204.
With `ATCACAGA` the E-score was 0.041.
For `ACCCGAGT`, the E-score was 0.0835.
With `AGCTTAAC` the E-score was -0.067.
With `GATTAGTA` the E-score was -0.0278.
The E-score of `ATTTGCCG` is reported as 0.221.
`ATATGGCG` gave an E-score of -0.0448.
With `CATCGCTA` the E-score was 0.113.
`CTCATATC` gave an E-score of -0.0567.
`GGGCGGTA` gave an E-score of -0.0159.
The E-score of `AGGTTCCG` is reported as 0.0239.
`ACAAGGCC` gave an E-score of 0.0232.
`GCATCAAA` has an E-score of 0.072.
`GTCAATGA` has an E-score of -0.121.
The E-score of `GACTTCAC` is reported as -0.0593.
The E-score of `CATATGGG` is reported as -0.153.
The E-score of `ACGAGAGC` is reported as 0.0807.
The E-score of `CTTGCATC` is reported as -0.0669.
With `GTGCTATA` the E-score was 0.0438.
For `CGCCACAC`, the E-score was 0.0762.
`GCAAGATA` has an E-score of -0.069.
`AGATCGTA` gave an E-score of -0.175.

Sample 4
Target: Centromere-binding protein 1, full length, N-terminal tag (CBF1, Saccharomyces cerevisiae, UniProt P17106, residues 1-351)
Sequence of UniProt P17106 (whole entry, looked up): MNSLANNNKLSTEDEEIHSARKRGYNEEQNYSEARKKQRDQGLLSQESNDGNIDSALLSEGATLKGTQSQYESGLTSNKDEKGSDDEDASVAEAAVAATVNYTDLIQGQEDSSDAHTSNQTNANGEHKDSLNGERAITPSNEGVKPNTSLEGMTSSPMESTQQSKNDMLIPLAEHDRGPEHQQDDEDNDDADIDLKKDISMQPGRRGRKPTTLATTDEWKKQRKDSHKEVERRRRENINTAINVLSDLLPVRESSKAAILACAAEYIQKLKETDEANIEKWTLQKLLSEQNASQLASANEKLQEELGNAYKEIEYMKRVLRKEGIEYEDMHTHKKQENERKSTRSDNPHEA
Technique: protein-binding microarray
Molecule type: double-stranded DNA, one strand shown
Medium: in vitro
Concentration: 0.8 µM
Setting: whole 60-bp probe, no competitor
Direction: higher = stronger binding
All sequences stand within: … GTCTTGATTCGCTTGACGCTGCTG
`GAACATAGTATATGTAACATCAATGATGCTGGGTAG` has a fluorescence intensity of 519 a.u.
For `CTAGAGCAGATAAGTCATGAGGCTAAGAAAGATTTC`, the fluorescence intensity was 631 a.u.
With `GAACTCCCATTAAATCTGATGACTGTTTCTCATTAG` the fluorescence intensity was 567 a.u.
For `GAACATAGTTTAGATCACGCTTAATAATGTCAATAG`, the fluorescence intensity was 883 a.u.
`GAATGCGTGGTTCGTCACCTTAGGATAATATCGTAG` has a fluorescence intensity of 540 a.u.
`CTATGCATTATTCATCATGTGGTCCAAAGCTTTTTC` gave a fluorescence intensity of 1850 a.u.
`CTACATTTTGCATAACACACGTTAACCAATATATTC` gave a fluorescence intensity of 550 a.u.
The fluorescence intensity of `CTAAGAATAATACGGCACGTTAAATGTTATTTTTTC` is reported as 563 a.u.
`GAATCAATAACGCACATGGTGGTGTACGGGTGTTAG` has a fluorescence intensity of 661 a.u.
`GAAATAATTAATTGGCATGCGACCTTGTTATTGTAG` gave a fluorescence intensity of 645 a.u.
`CTACTCCTTATGTTTGGTGTCACTGTAAAGCGGTTC` gave a fluorescence intensity of 542 a.u.
The fluorescence intensity of `CTAGTAAATAACACACACGTGCTTACCCTACCATTC` is reported as 6640 a.u.
For `CTATTTGCTTTCCCCCACCAGACATATATAAAGTTC`, the fluorescence intensity was 605 a.u.
`CTAATACCCGGAAGTCGCGTGATCTTTTTTTTTTTC` gave a fluorescence intensity of 3580 a.u.
For `GAAGATTTTGAACATCACGGTTGGTCAAGACCATAG`, the fluorescence intensity was 516 a.u.
`CTACAGTAGCAACAACACGTTTTCTTGGATGATTTC` has a fluorescence intensity of 586 a.u.
`GAAACGTAGAAACGACATCAGTCGCTTTCGCTTTAG` has a fluorescence intensity of 485 a.u.

Sample 5
Target: TAR DNA-binding protein 43, full length, His tag (TARDBP, Homo sapiens, UniProt Q13148, residues 1-414)
Technique: RNA Bind-n-Seq
Molecule type: RNA
Medium: in vitro
Concentration: 20 nM
Setting: 6-mer, flanks averaged, single round
Together with: 150 mM LiCl
Reference: input library
Direction: higher = stronger binding
Under “6-mer enrichment (R)”, `CAGUAG` is recorded as 0.909.
`UAUCCC`: “6-mer enrichment (R)” 1.
Under “6-mer enrichment (R)”, `AGGUCU` is recorded as 0.852.
`UGAUCG` — result for “6-mer enrichment (R)”: 0.981.
For `CUGGGC`, “6-mer enrichment (R)” read 0.972.
For `UAUUCG`, “6-mer enrichment (R)” read 0.92.
For `UUAAGG`, “6-mer enrichment (R)” read 0.955.
For `CUUCAA`, “6-mer enrichment (R)” read 0.836.
For `CCGGGA`, “6-mer enrichment (R)” read 0.964.
`ACUAUA` — result for “6-mer enrichment (R)”: 0.91.
`CGUCCG`: “6-mer enrichment (R)” 0.882.
`UAGUUC` — result for “6-mer enrichment (R)”: 0.883.
For `AAUCAC`, “6-mer enrichment (R)” read 0.829.
`GGUAUC` — result for “6-mer enrichment (R)”: 0.907.

Excerpt of the above (sample 2):
`L7P`: “normalised enrichment score” 0.379.
`D11S` — result for “normalised enrichment score”: 0.565.
For `D11C`, “normalised enrichment score” read 0.577.
`R5D`: “normalised enrichment score” 0.417.
Under “normalised enrichment score”, `A3D` is recorded as -0.154.
Under “normalised enrichment score”, `D11A` is recorded as 0.59.
`G9D`: “normalised enrichment score” 0.729.
`G1M`: “normalised enrichment score” 0.203.
`L7Y` — result for “normalised enrichment score”: 0.235.
For `L7M`, “normalised enrichment score” read 0.382.
`P12V` — result for “normalised enrichment score”: 0.676.
`R6N` — result for “normalised enrichment score”: 0.886.
For `A3Y`, “normalised enrichment score” read 0.274.
`P13W`: “normalised enrichment score” 0.649.
For `R5V`, “normalised enrichment score” read 0.337.
